Experimental data from different studies.
Lines come from different studies, so protocols differ. Several values in a cell are separate wells, animals, samples, runs or records. ± gives the spread as reported.
GLP1R: Glucagon-like peptide 1 receptor (GLP1R, Homo sapiens, UniProt P43220)
TOP2A: DNA topoisomerase 2-alpha (TOP2A, Homo sapiens, UniProt P11388)
Sequence of UniProt P11388 (whole entry, looked up): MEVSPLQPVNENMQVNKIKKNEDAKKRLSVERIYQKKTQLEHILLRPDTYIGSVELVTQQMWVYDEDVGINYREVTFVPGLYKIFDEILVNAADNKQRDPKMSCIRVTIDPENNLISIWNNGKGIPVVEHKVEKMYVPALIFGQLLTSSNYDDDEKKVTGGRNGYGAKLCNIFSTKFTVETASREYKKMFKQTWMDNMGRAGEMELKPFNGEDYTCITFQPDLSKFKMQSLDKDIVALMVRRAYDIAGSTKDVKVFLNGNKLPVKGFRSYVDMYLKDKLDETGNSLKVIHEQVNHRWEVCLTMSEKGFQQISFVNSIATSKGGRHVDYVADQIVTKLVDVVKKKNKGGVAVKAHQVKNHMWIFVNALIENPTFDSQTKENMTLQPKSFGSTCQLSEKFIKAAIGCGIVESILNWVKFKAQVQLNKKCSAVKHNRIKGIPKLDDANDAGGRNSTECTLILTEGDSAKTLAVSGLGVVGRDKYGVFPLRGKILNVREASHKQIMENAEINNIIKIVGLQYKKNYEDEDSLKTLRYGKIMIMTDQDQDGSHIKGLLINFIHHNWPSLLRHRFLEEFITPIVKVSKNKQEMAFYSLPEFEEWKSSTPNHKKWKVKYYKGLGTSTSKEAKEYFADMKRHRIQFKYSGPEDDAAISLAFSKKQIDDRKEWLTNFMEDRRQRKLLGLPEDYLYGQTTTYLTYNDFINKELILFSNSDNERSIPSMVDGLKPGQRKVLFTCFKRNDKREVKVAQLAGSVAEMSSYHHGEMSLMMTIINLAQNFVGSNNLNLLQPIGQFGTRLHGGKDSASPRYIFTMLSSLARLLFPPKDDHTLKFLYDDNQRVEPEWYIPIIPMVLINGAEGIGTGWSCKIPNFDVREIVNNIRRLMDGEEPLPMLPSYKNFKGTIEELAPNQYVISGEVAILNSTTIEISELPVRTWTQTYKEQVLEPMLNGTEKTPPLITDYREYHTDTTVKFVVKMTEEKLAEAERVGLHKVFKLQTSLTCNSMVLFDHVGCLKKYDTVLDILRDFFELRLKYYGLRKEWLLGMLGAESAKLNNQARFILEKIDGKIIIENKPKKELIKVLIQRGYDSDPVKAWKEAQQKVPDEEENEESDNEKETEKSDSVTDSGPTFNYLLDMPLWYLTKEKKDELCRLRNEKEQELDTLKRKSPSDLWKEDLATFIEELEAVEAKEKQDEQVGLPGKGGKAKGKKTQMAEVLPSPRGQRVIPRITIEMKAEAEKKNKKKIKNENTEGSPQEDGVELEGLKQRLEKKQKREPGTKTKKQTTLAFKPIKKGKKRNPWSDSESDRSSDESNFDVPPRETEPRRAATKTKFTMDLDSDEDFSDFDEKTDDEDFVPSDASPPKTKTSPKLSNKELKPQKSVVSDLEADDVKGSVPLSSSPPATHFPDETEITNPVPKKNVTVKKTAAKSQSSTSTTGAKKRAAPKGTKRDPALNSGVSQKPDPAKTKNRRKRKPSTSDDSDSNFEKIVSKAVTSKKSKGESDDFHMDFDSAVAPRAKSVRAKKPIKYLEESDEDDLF
AKT1: RAC-alpha serine/threonine-protein kinase (AKT1, Homo sapiens, UniProt P31749)
Sequence of UniProt P05164 (whole entry, looked up): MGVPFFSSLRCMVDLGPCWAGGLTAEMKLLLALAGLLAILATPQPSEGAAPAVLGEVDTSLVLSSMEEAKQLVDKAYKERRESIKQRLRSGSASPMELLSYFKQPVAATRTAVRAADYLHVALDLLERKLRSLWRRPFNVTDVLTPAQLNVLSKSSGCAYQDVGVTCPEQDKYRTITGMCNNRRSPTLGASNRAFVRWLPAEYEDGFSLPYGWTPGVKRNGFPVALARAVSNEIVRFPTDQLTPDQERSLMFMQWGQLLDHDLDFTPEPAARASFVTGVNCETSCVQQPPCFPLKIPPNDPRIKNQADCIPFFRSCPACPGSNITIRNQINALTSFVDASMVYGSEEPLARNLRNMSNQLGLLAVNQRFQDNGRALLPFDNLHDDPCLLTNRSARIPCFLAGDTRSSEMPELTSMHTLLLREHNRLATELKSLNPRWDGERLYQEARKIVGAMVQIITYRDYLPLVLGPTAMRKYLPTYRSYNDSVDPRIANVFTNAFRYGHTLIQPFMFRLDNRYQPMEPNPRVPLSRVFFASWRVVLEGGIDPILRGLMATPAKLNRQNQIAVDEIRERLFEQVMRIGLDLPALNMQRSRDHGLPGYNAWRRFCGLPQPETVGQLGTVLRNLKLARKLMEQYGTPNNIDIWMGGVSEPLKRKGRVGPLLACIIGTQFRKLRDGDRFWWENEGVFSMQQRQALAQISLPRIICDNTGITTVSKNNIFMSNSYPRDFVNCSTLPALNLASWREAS
Sequence of UniProt Q16774 (whole entry, unmodified, looked up): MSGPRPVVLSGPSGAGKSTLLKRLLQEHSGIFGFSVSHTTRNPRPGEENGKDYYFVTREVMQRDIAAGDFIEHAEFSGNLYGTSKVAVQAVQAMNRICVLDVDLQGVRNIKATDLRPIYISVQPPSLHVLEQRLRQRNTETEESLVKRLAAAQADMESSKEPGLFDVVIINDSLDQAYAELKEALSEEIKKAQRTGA
Sequence of UniProt P49915 (whole entry, looked up): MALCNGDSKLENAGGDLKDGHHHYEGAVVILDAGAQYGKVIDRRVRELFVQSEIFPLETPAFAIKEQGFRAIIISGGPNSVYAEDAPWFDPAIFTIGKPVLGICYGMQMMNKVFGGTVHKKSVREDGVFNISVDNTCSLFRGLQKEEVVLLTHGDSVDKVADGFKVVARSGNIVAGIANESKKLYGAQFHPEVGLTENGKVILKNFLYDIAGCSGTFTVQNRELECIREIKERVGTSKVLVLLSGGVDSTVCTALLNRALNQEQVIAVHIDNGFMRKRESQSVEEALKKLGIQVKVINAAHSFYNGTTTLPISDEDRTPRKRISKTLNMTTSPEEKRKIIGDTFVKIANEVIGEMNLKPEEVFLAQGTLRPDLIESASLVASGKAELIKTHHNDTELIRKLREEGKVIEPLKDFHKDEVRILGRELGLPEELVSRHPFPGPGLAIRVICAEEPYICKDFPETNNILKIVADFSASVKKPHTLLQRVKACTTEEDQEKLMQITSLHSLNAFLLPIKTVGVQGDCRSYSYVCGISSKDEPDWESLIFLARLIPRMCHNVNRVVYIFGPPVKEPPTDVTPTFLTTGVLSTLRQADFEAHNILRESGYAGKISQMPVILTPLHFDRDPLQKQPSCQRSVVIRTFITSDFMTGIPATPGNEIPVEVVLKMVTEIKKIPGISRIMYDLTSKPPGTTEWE
Sequence of UniProt P51575 (whole entry, unmodified, looked up): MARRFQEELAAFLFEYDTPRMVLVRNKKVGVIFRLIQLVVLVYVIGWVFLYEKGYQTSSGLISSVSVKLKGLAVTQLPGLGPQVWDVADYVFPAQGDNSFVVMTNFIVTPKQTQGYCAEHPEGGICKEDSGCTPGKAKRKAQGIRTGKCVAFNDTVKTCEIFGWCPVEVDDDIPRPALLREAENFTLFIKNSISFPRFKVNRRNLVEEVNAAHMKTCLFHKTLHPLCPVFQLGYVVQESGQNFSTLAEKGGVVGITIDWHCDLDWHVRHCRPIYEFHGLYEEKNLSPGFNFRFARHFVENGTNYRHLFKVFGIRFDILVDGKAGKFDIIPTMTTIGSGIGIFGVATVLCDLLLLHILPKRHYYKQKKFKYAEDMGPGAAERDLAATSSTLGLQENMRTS
Sequence of UniProt P31749 (whole entry, looked up): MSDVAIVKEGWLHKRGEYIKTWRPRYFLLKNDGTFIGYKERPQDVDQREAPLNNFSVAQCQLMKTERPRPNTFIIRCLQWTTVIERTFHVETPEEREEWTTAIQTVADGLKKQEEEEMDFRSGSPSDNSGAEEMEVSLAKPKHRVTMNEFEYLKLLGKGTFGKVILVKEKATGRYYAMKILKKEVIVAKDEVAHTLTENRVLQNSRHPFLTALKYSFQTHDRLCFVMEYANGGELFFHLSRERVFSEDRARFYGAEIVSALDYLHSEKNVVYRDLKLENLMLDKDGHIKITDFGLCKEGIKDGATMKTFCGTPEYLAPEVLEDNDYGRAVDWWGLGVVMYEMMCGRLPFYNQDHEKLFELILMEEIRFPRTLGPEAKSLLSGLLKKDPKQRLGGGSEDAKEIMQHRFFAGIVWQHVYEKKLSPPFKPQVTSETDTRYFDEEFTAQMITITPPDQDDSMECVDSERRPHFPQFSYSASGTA
Sequence of UniProt P04150 (whole entry, looked up): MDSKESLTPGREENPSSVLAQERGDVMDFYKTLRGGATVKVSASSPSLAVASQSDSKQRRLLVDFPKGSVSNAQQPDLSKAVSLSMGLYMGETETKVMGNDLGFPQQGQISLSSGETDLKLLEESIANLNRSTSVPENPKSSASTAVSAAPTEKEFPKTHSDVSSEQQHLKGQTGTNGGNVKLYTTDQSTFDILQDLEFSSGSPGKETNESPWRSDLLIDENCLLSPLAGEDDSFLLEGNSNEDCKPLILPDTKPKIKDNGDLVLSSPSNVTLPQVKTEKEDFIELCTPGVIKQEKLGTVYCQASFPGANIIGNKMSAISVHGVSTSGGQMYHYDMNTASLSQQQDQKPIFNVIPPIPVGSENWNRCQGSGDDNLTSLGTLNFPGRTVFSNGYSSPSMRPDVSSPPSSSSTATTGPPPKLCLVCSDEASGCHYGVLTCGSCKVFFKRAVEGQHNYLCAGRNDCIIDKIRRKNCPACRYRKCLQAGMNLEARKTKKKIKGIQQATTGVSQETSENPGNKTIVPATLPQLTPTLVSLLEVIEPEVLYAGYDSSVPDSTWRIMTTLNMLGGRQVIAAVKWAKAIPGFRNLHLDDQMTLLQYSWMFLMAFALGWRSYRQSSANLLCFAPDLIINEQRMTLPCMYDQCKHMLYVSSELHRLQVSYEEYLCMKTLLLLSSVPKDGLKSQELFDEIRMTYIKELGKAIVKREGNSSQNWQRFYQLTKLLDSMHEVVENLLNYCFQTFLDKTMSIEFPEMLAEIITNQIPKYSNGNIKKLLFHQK
Sequence of UniProt P02763 (whole entry, looked up): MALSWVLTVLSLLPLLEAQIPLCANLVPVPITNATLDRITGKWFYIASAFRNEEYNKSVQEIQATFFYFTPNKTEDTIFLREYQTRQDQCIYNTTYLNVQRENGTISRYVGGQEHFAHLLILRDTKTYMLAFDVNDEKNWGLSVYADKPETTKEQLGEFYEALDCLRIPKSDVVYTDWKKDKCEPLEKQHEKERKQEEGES

`O=C(Nc1cccc2c(=O)cc(-c3nnn[nH]3)oc12)c1ccc(OCCCCc2ccccc2)cc1` gave an inhibition of 88.2% (Volume-regulated anion channel subunit LRRC8C, part LRRC8A IL1 chimera (LRRC8C, Homo sapiens, UniProt Q8TDW0, E6A); ion current, inhibitor, whole-cell patch clamp; HCT116 LRRC8 knockout, transfected; 1 µM, at +100 mV).
Under “fold potency loss”, `CC[C@H](C)[C@H](NC(=O)[C@H](Cc1ccccc1)NC(=O)[C@H](CCC(=O)O)NC(=O)[C@H](CCCNC(=N)N)NC(=O)[C@H](C)NC(=O)[C@H](C)NC(=O)[C@H](CCC(N)=O)NC(=O)[C@H](CCC(=O)O)NC(=O)[C@H](CCC(=O)O)NC(=O)[C@H](CC(C)C)NC(=O)[C@H](Cc1ccc(O)cc1)NC(=O)[C@H](CO)NC(=O)[C@H](CO)NC(=O)[C@@H](NC(=O)[C@H](CC(=O)O)NC(=O)[C@H](CO)NC(=O)[C@@H](NC(=O)[C@H](Cc1ccccc1)NC(=O)[C@@H](NC(=O)CNC(=O)[C@H](CCC(=O)O)NC(=O)[C@H](C)NC(=O)CCc1cnc[nH]1)[C@@H](C)O)[C@@H](C)O)C(C)C)C(=O)N[C@@H](C)C(=O)N[C@@H](Cc1c[nH]c2ccccc12)C(=O)N[C@@H](CC(C)C)C(=O)N[C@H](C(=O)N[C@@H](CCCNC(=N)N)C(=O)NCC(=O)N[C@@H](CCCNC(=N)N)C(=O)N[C@@H](CCCCNC(=O)COCCOCCNC(=O)COCCOCCNC(=O)CC[C@H](NC(=O)CCCCCCCCCCCCCCCCC(=O)O)C(=O)O)C(=O)NCC(=O)NCC(=O)N[C@@H](CO)C(=O)N[C@@H](CCCCNc1c(NCCCCCN(O)C(=O)CCC(=O)NCCCCCN(O)C(=O)CCC(=O)NCCCCCN(O)C(C)=O)c(=O)c1=O)C(=O)N[C@@H](CCCCNc1c(NCCCCCN(O)C(=O)CCC(=O)NCCCCCN(O)C(=O)CCC(=O)NCCCCCN(O)C(C)=O)c(=O)c1=O)C(=O)O)C(C)C` is recorded as 2 (GLP1R; agonist, CRE luciferase reporter; BHK cells; metal-free DFO conjugate, together with: 1% HSA; reference: parent peptide).
`N[C@@H](CCSC[C@H](N)C(=O)O)C(=O)O` has a Ki of 45 mM (Uncharacterized protein (Thermobifida fusca, UniProt Q47ST9); substrate inhibition).
`Nc1ncnc2c1ncn2[C@@H]1O[C@H](COP(=O)(O)CP(=O)(O)OP(=O)(O)O)[C@@H](O)[C@H]1O` has a specific binding of 1530 CCPM and 1310 CCPM (P2X purinoceptor 1 (P2RX1, Homo sapiens, UniProt P51575, E282A); saturation binding; HEK293; 52 nM).
`CSc1ccc(C(=O)/C=C/c2cc(C)c(OC(C)(C)C(=O)O)c(C)c2)cc1` gave an Emax of 46% (Peroxisome proliferator-activated receptor delta (Rattus norvegicus, UniProt Q62879); reporter gene, agonist, luciferase reporter; rat; reference: maximal control activation).
For `C=CC(=O)N1CCC(COCC(=O)N2CCN(c3nc(-c4cnc(N)nc4C(F)F)nc(N4CCOC[C@@H]4C)n3)CC2)CC1`, the remaining binding was 100% (MYLK (Homo sapiens, UniProt Q15746); KINOMEscan; 1 µM).
Under “fold potency loss”, `CC[C@H](C)[C@H](NC(=O)[C@H](Cc1ccccc1)NC(=O)[C@H](CCC(=O)O)NC(=O)[C@H](CCCNC(=N)N)NC(=O)[C@H](C)NC(=O)[C@H](C)NC(=O)[C@H](CCC(N)=O)NC(=O)[C@H](CCC(=O)O)NC(=O)[C@H](CCC(=O)O)NC(=O)[C@H](CC(C)C)NC(=O)[C@H](Cc1ccc(O)cc1)NC(=O)[C@H](CO)NC(=O)[C@H](CO)NC(=O)[C@@H](NC(=O)[C@H](CC(=O)O)NC(=O)[C@H](CO)NC(=O)[C@@H](NC(=O)[C@H](Cc1ccccc1)NC(=O)[C@@H](NC(=O)CNC(=O)[C@H](CCC(=O)O)NC(=O)[C@H](C)NC(=O)CCc1cnc[nH]1)[C@@H](C)O)[C@@H](C)O)C(C)C)C(=O)N[C@@H](C)C(=O)N[C@@H](Cc1c[nH]c2ccccc12)C(=O)N[C@@H](CC(C)C)C(=O)N[C@H](C(=O)N[C@@H](CCCNC(=N)N)C(=O)NCC(=O)N[C@@H](CCCNC(=N)N)C(=O)N[C@@H](CCCCNC(=O)COCCOCCNC(=O)COCCOCCNC(=O)CC[C@H](NC(=O)CCCCCCCCCCCCCCCCC(=O)O)C(=O)O)C(=O)NCC(=O)NCC(=O)N[C@@H](CO)C(=O)N[C@@H](CCCCNC(=O)[C@H](CCCCNc1c(NCCCCCN(O)C(=O)CCC(=O)NCCCCCN(O)C(=O)CCC(=O)NCCCCCN(O)C(C)=O)c(=O)c1=O)Nc1c(NCCCCCN(O)C(=O)CCC(=O)NCCCCCN(O)C(=O)CCC(=O)NCCCCCN(O)C(C)=O)c(=O)c1=O)C(=O)O)C(C)C` is recorded as 1.2 (GLP1R; agonist, CRE luciferase reporter; BHK cells; Zr-loaded DFO conjugate, together with: 1% HSA; reference: parent peptide).
For `CC[C@H](C)[C@@H]1NC(=O)[C@H](Cc2ccc(O)cc2)NC(=O)CSC[C@@H](C(N)=O)NC(=O)CNC(=O)[C@H](Cc2c[nH]cn2)NC(=O)[C@H](CCCNC(=N)N)NC(=O)[C@H](CC(N)=O)NC(=O)[C@@H]2CCCN2C(=O)[C@H](Cc2ccccc2)NC(=O)[C@H]([C@@H](C)O)NC(=O)CNC(=O)[C@H](CC(C)C)NC(=O)[C@@H]2CCCN2C(=O)[C@H]([C@@H](C)O)NC(=O)[C@H](CCCCN)NC1=O`, the ΔH was -13 ± 1.1 kcal/mol (Vacuolar protein sorting-associated protein 29 (VPS29, Homo sapiens, UniProt Q9UBQ0); binding, ITC; 25 °C, protein alone).
`O=C(Cn1ccnc1)Nc1ccc([C@H]2[C@@H](F)[C@@H](F)C[C@@H](F)[C@H]2F)cc1` gave a hepatic clearance of 7.3 mL/min/kg (dog liver microsomes; 1 µM).
The Emax of `CCCCC[C@H](O)/C=C/[C@H]1[C@H](O)CC(=O)[C@@H]1C/C=C\CCCC(=O)O` is reported as 59.6 ± 8.03% (PTGER1 (Homo sapiens, UniProt P34995, H145A); IP1 accumulation, agonist; AD293; 1 h, EP1 H145A mutant).
For `Oc1ccccc1-c1n[nH]cc1-c1ccnc2ccccc12`, “log2 fold change” read 0 (Serine/threonine-protein kinase SSN3 (SSN3, Candida albicans, UniProt Q5AHK2); kinase binding, MIB/MS competition; Candida albicans lysate; 10 µM; reference: DMSO, negative = stronger binding).
`CC(C)[C@H](NC(=O)c1cc(-c2cnn3cc(-c4ccc(OCCN5CCCCC5)cc4)cnc23)cs1)C(F)(F)F` gave a relative inhibition of 0 (PYK2 (human); radiometric kinase; 15 nM; reference: PYK2 over ULK1).
`O=C1CCC(N2C(=O)c3cccc(NCCCCNC(=O)c4cccc(C#Cc5cc(NC(=O)Nc6ccnc(Cl)c6)ccn5)c4)c3C2=O)C(=O)N1` (stereo not shown) has a ΔS of -37.6 cal/mol/K (SWI/SNF-related matrix-associated actin-dependent regulator of chromatin subfamily A member 4, residues 537-1393 (SMARCA4, Homo sapiens, UniProt P51532); ITC).
Under “fold potency loss”, `CC[C@H](C)[C@H](NC(=O)[C@H](Cc1ccccc1)NC(=O)[C@H](CCC(=O)O)NC(=O)[C@H](CCCNC(=N)N)NC(=O)[C@H](C)NC(=O)[C@H](C)NC(=O)[C@H](CCC(N)=O)NC(=O)[C@H](CCCCNc1c(NCCCCCN(O)C(=O)CCC(=O)NCCCCCN(O)C(=O)CCC(=O)NCCCCCN(O)C(C)=O)c(=O)c1=O)NC(=O)[C@H](CCC(=O)O)NC(=O)[C@H](CC(C)C)NC(=O)[C@H](Cc1ccc(O)cc1)NC(=O)[C@H](CO)NC(=O)[C@H](CO)NC(=O)[C@@H](NC(=O)[C@H](CC(=O)O)NC(=O)[C@H](CO)NC(=O)[C@@H](NC(=O)[C@H](Cc1ccccc1)NC(=O)[C@@H](NC(=O)CNC(=O)[C@H](CCC(=O)O)NC(=O)[C@H](C)NC(=O)CCc1cnc[nH]1)[C@@H](C)O)[C@@H](C)O)C(C)C)C(=O)N[C@@H](C)C(=O)N[C@@H](Cc1c[nH]c2ccccc12)C(=O)N[C@@H](CC(C)C)C(=O)N[C@H](C(=O)N[C@@H](CCCNC(=N)N)C(=O)NCC(=O)N[C@@H](CCCNC(=N)N)C(=O)N[C@@H](CCCCNC(=O)COCCOCCNC(=O)COCCOCCNC(=O)CC[C@H](NC(=O)CCCCCCCCCCCCCCCCC(=O)O)C(=O)O)C(=O)NCC(=O)NCC(=O)N[C@@H](CO)C(=O)N[C@@H](CCCCNc1c(NCCCCCN(O)C(=O)CCC(=O)NCCCCCN(O)C(=O)CCC(=O)NCCCCCN(O)C(C)=O)c(=O)c1=O)C(=O)O)C(C)C` is recorded as 10 (GLP1R; agonist, CRE luciferase reporter; BHK cells; metal-free DFO conjugate, together with: 0% HSA; reference: parent peptide).
`CCS(=O)(=O)N1CC(CC#N)(n2cc(-c3ncnc4[nH]ccc34)cn2)C1` — result for “Gibbs free energy”: -6.17 kcal/mol (ORM1 (Homo sapiens, UniProt P02763); fluorescence quenching; 303 K).
`O=C(N/N=C/c1cc(Br)ccc1O)c1cc2ccccc2cc1O`: activity “inactive” (NR3C1 (Homo sapiens, UniProt P04150); SRC1-4 coactivator displacement, inhibitor, TR-FRET; up to 100 µM, together with: dexamethasone).
Under activity, `CCN(CC)C(=S)S` is recorded as “inactive” (PTPRC (Homo sapiens, UniProt P08575); enzyme activity; concentration not given, together with: DiFMUP).
`O=C(NCCN1CCCC1=O)c1ccc(C2CCCCC2)cc1` gave a hepatic clearance of 18 mL/min/kg (hepatocyte stability; cryopreserved human hepatocytes; 1 µM).
`CC(=O)N[C@H]1[C@H]([C@H](O)[C@H](O)CO)O[C@@](OC[C@H]2O[C@@H](Oc3ccc([N+](=O)[O-])cc3)[C@H](O)[C@@H](O)[C@H]2O)(C(=O)O)C[C@@H]1O` has a kcat of 0.18 ± 0.01 s⁻¹ (Sialidase-2 (Homo sapiens, UniProt Q9Y3R4); substrate; 10 min, pH 5.0, 37 °C).
Under “mean decatenated DNA”, `O=c1nc(SCc2cc(F)cc(C(F)(F)F)c2)nc(SCc2ccc3sccc3c2)[nH]1` is recorded as 0.07% (TOP2A; decatenation; 31.25 µM).
With `CC[C@@H]1[C@H](F)C(=O)N[C@@H]1COc1nccc2cc(C(N)=O)c(OC)cc12` the inhibition was 11.8% (AKT1; ATP probe binding, KiNativ profiling, refers to: ATP loop probe site; THP-1 cell lysate; 0.2 mM).
For `Cc1cc(-c2ccnc3[nH]cc(F)c23)cc(F)c1[C@@]1(O)[C@H](C)CN(C2CCS(=O)(=O)CC2)C[C@@H]1C`, “probe labelling inhibition” read 4.4% (AKT1; ATP/ADP probe binding, KiNativ; HEK293T lysate; 1 µM, ATP loop peptide).
The decatenated DNA of `O=c1nc(SCc2cc(F)cc(C(F)(F)F)c2)nc(SCc2csc3ccc(Cl)cc23)[nH]1` is reported as 39.7% (TOP2A; decatenation; 1.95 µM, replicate 1).
Under “log fold enrichment”, `CCCCC[S+]([O-])c1n[nH]c(N)n1` (stereo not shown) is recorded as -0.0585 (Transcription intermediary factor 1-alpha, PHD-bromodomain (TRIM24, Homo sapiens, UniProt O15164); binding, affinity selection mass spectrometry; reference: other proteins in batch).
With `O=C(O)c1ccc(Nc2ncc3c(n2)-c2ccc(Cl)cc2C(c2c(F)cccc2F)=NC3)cc1` the remaining activity was 129% (human CK1δ(h); kinase activity; 1 µM).
Under “thermal stability ratio”, `O=C(COP(=O)(O)O)[C@@H](O)[C@H](O)[C@H](O)COP(=O)(O)O` is recorded as 0.421 and 0.458 and 0.583 (GMP synthase [glutamine-hydrolyzing] (Homo sapiens, UniProt P49915); thermal proteome profiling, refers to: GMPS; HepG2 cell lysate; concentration not given, 57 over 37 °C; reference: compound over control).
`CC(C)OCCn1c(=S)[nH]c(=O)c2[nH]ccc21` — result for “LDL lipid peroxidation”: 82.3% and 141% and 58.3% and 92.4% (Myeloperoxidase (MPO, Homo sapiens, UniProt P05164); inhibitor, cholesteryl ester hydroperoxide; 0.1235 µM; reference: control).
For `Nc1ncnc2c1ncn2[C@@H]1O[C@H](COP(=O)(O)OP(=O)(O)O)[C@@H](O)[C@H]1O`, “ΔH of binding” read -4.53 kcal/mol and -4.65 kcal/mol and -3.23 kcal/mol (GUK1 (Homo sapiens, UniProt Q16774); ITC; concentration not given, together with: ATPγS).
